# Experimental data collected from several papers.
# Lines come from different studies, so protocols differ. “And” joins repeats or separate records; there may be more than shown.
# Target: Calcium/calmodulin-dependent protein kinase type II subunit delta (CAMK2D, Homo sapiens, UniProt Q13557)
# Sequence of UniProt Q13557 (whole entry, unmodified, looked up): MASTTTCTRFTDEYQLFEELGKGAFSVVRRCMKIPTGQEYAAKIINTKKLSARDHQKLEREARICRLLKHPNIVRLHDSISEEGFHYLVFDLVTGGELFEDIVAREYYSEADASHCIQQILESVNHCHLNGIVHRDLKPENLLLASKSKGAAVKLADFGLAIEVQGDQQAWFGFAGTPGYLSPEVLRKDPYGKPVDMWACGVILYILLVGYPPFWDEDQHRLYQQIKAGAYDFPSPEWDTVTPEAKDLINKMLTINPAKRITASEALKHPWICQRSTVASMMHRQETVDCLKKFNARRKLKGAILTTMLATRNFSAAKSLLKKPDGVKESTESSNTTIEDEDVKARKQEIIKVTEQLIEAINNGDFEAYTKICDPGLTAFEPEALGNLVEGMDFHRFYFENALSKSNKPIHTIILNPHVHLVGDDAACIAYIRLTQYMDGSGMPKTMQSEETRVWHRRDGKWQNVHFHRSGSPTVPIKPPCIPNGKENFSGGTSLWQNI
Structure (SMILES),assay,test system,setting,how to read,quantity,result
Cc1ccc(-c2c(/C=C(\C#N)C(=O)NC(C)C)n(CCCO)c3ncnc(N)c23)cc1,"cell-free assay, competition with immobilised ligand",,1 µM,,remaining binding,73%
Cc1cccc(O[C@H]2CCC[C@@H](C(C)CNCc3ccncc3)C2)c1 (relative stereo),"cell-free assay, inhibitor",,1 µM,,inhibition,2%
CS(=O)(=O)Nc1cccc(-c2csc3cnc(Nc4ccc(N5CCN(CCCCCOc6cccc7c6C(=O)N(C6CCC(=O)NC6=O)C7=O)CC5)cc4)nc23)c1 (stereo not drawn),"probe labelling, inhibitor, KiNativ chemoproteomics",MOLT-4,1 µM,,inhibition,-10.7%
C=CC(=O)N1CCCC(n2c(=O)c3ncccc3n(Cc3ccc(Oc4ccccc4)cc3)c2=O)C1 (stereo not drawn),"cell-free assay, competition with immobilised ligand",,1 µM,,remaining binding,100%
O=C=[N][Ru-4]123([n]4c5ccc(O)cc5c5c6c(c7cc(F)c[n+]1c7c54)C(=O)NC6=O)[S+]1CC[S+]2CC[S+]3CC1 (stereo not drawn),enzyme activity,,"100 nM, human enzyme, with: 10 µM ATP",relative to: untreated,remaining activity,23%
COCC12C(=O)NC3C4(C(OC)CC1O)C1CC5(O)C(OC)C(O)C(OC(C)=O)(C1C5OC(=O)c1ccccc1)C3(O)C(OC)C24 (stereo not drawn),"kinase activity, inhibitor, ProQinase kinase profiling",,25 µM,relative to: control,remaining activity,95% and 97%
CNC(=O)C[C@H](Cc1ccc(C#N)cc1)NC(=O)c1cc(-c2ccc(CN[C@H](C)c3ccc(C)cc3)o2)ccc1Cl,"enzyme activity, inhibitor",,1 µM,,activity vs control,98%
CC(C)=CC1OC(C)(C)C2C=C3C(=O)C(Cl)=CC(O)C3C3C(O)C4OC4C(=O)C132 (stereo not drawn),"cell-free assay, competition with immobilised ligand",,10 µM,,remaining binding,90%
NC(=O)[C@@H](O)C[C@H]1CCc2sc3ncnc(O[C@H]4CC[C@H](N5CCOCC5)CC4)c3c21,"enzyme activity, inhibitor",,10 µM,,inhibition,31%
Nc1ncc2c(n1)-c1c([nH]c3ccc(C4=CCOCC4)cc13)CCC2,"binding, competition with immobilised ligand",,1 µM,,remaining binding,100%
C=CC(=O)Nc1cccc(-c2cnc3[nH]cc(C(=O)NC(C)(C)C)c3n2)c1,kinase activity,,0.1 µM,,inhibition,0% and -2%
O=C(Cc1ccc(OCc2ccccc2)cc1)NC1(C(=O)O)CCN(C(=O)c2ccc(-c3cccc(Cl)c3)cc2)CC1,"enzyme activity, inhibitor",,10 µM,,activity vs control,104%
COc1cc(Nc2nc(C)cc(-c3cnn4nc(OC)ccc34)n2)cc(C(F)(F)F)c1,inhibitor,,1 µM,relative to: control,remaining activity,100%
COc1c(OCCCN2CCOCC2)ccc2c1N=C(NC(=O)c1cnc(N)nc1)N1CCN=C21,"kinase activity, inhibitor",,1 µM,relative to: untreated control,remaining activity,93%
CCn1cc(C(=O)O)c(=O)c2c(N)c(F)c(NC3CCCCC3)cc21,kinase activity,,"0.1 µM, with: ATP at Km",,inhibition,-9%

# Some of these lines once more:
Structure (SMILES),assay,test system,setting,how to read,quantity,result
C=CC(=O)Nc1cccc(-c2cnc3[nH]cc(C(=O)NC(C)(C)C)c3n2)c1,kinase activity,,0.1 µM,,inhibition,0% and -2%
O=C(Cc1ccc(OCc2ccccc2)cc1)NC1(C(=O)O)CCN(C(=O)c2ccc(-c3cccc(Cl)c3)cc2)CC1,"enzyme activity, inhibitor",,10 µM,,activity vs control,104%
